Published values of several laboratories.
Protocols differ between the studies behind these lines. Several values in a cell are separate wells, animals, samples, runs or records. Numbers after ± are the reported error.

| Compound | target | assay | system | setting | how to read | quantity | result |
| --- | --- | --- | --- | --- | --- | --- | --- |
| CCN(CC)c1ccc(/C=N/c2ccccc2Br)c(O)c1 | yeast alpha-glucosidase | enzyme activity |  | together with: pNPG |  | IC50 | > 400 µM |
| Cc1c[nH]c(-c2cnc(NCCNc3ccc(C#N)cn3)nc2-c2ccc(Cl)cc2Cl)n1 | GSK3 | inhibitor, immunoblot | HEK293 stably expressing Hwa-HA | 5 µM, 24 h |  | Hwa phosphorylation | decreased |
| C#Cc1cc(-c2cc(Nc3nc(N[C@@H](C)c4ccc(F)cn4)ncc3Cl)n[nH]2)ccc1C=O | TPR-TRKA kinase fusion, human | kinase activity, inhibitor |  | 0.2 µM |  | inhibition | 100% |
| NCCOc1cc(C(=O)Nc2cc(OCCN)c3ccccc3n2)nc(C(=O)Nc2cc(OCCN)c3ccccc3n2)c1 | c-myc G-quadruplex DNA | FRET melting |  | 1 µM, pH 7.4, together with: 60 mM potassium |  | ΔTm | 16.8 ± 0.8 K |
| Cc1cc(F)cc2c(CCC(=O)N[C@@H]3C(=O)NC[C@H]3O)c(-c3ccc(F)cc3)[nH]c12 | NMDA glutamate receptor, glycine site | binding |  | 10 µM |  | inhibition | 3% |
| c1ccc(CCNc2ccnc3ccccc23)cc1 | CDK8/CDK19 | NF-κB reporter gene | 293-NFκB-Luc | 3 h, together with: TNF-α 10 ng/mL |  | IC50 | > 5 µM |
| [Cl-].[Cl-].[Pt+2].[Ru+2].c1ccc(-c2nc3cc4ccccc4cc3nc2-c2ccccn2)nc1.c1cnc2c(c1)ccc1cccnc12.c1cnc2c(c1)ccc1cccnc12 | pcDNA supercoiled plasmid | agarose gel electrophoresis |  | 20 µM, photoinduced cleavage, together with: 0.1 µM pcDNA |  | nicked circular DNA | 12.6% |
| COc1ccccc1-c1n[nH]c2nc(N[C@H]3CC[C@H](NS(=O)(=O)CCCOCCOCCNC(=O)OC(C)(C)C)CC3)ncc12 | Leishmania donovani CRK3 (LINJ.36.0600) | resin binding competition | promastigote lysate | 10 µM | reference: DMSO | log2 SILAC ratio heavy/light | 3.31 |
| CN(C)CCCOc1cc(NC(=O)c2cc(Cl)cc(C(=O)Nc3cc(OCCCN(C)C)c4ccccc4n3)n2)nc2ccccc12 | c-myc G-quadruplex DNA | FRET melting |  | 1 µM, pH 7.4, together with: 60 mM potassium |  | ΔTm | 16.9 ± 0.8 K |
| Nc1ccc2nccc(NCCc3ccccc3)c2c1 | CDK8/CDK19 | NF-κB reporter gene | 293-NFκB-Luc | 3 h, together with: TNF-α 10 ng/mL |  | IC50 | > 5 µM |
| Oc1ccccc1-c1n[nH]cc1-c1ccnc2ccccc12 | KIN2 (Candida albicans) | kinase binding, MIB/MS competition | Candida albicans lysate | 10 µM | reference: DMSO | log2 fold change | 0.04 |
| C#CCOc1cc(C(=O)Nc2cc(OCCCN)c3ccccc3n2)nc(C(=O)Nc2cc(OCCCN)c3ccccc3n2)c1 | c-myc G-quadruplex DNA | FRET melting |  | 1 µM, pH 7.4, together with: 60 mM potassium |  | ΔTm | 6.3 ± 0.3 K |
| [Cl-].[Cl-].[Pt+2].[Ru+2].c1ccc(-c2nccnc2-c2ccccn2)nc1.c1cnc2c(c1)ccc1cccnc12.c1cnc2c(c1)ccc1cccnc12 | pcDNA supercoiled plasmid | agarose gel electrophoresis |  | 100 µM, photoinduced cleavage, together with: 0.1 µM pcDNA |  | nicked circular DNA | 23.7% |
| CCS(=O)(=O)c1nc(C2CC2)cc(C(F)(F)F)n1 | importin beta-1 | SREBP1 nuclear import, high content imaging | HeLa Kyoto | 0.5 µM, 3 h, together with: glucose and MG132 |  | cells with nuclear SREBP1 | 87.9% and 87.4% and 95% and 84.1% |
| NC1(C(=O)N[C@@H](CCO)c2ccc(Cl)cc2)CCN(c2nc[nH]c3nccc2-3)CC1 | Akt | inhibitor | mouse BT-474 xenograft | oral, 300 mg/kg |  | time to peak response | 8 h |
| CCN(CC)c1ccc(/C=N/c2ccc(F)c(Cl)c2)c(O)c1 | yeast alpha-glucosidase | enzyme activity |  | together with: pNPG |  | IC50 | 60.9 µM |
| CCOc1ccc2c(C(F)(F)F)cc(=O)oc2c1 | rabbit cytochrome P450 2B4 F297A | O-deethylation, substrate |  |  |  | kcat | 0.09 ± 0.00333 s⁻¹ |
| CC(Nc1nc(N2CCCC2)nc2ccccc12)c1ccccc1 (centres unmarked) | importin beta-1 | SREBP1 nuclear import, high content imaging | HeLa Kyoto | 0.02 µM, 3 h, together with: glucose and MG132 |  | cells with nuclear SREBP1 | 88.2% and 88.6% and 90% and 84.1% |
| [Cl-].[Cl-].[Pt+2].[Ru+2].c1ccc(-c2nc3ccccc3nc2-c2ccccn2)nc1.c1cnc2c(c1)ccc1cccnc12.c1cnc2c(c1)ccc1cccnc12 | pcDNA supercoiled plasmid | agarose gel electrophoresis |  | 20 µM, photoinduced cleavage, together with: 0.1 µM pcDNA |  | nicked circular DNA | 11.7% |
| NCCCOc1cc(NC(=O)c2cc(OCCN)cc(C(=O)Nc3cc(OCCCN)c4ccccc4n3)n2)nc2ccccc12 | c-myc G-quadruplex DNA | FRET melting |  | 1 µM, pH 7.4, together with: 60 mM potassium |  | ΔTm | 15.8 ± 0.8 K |
| c1coc(-c2n[nH]cc2-c2ccnc3ccccc23)c1 | KIN3 (Candida albicans) | kinase binding, MIB/MS competition | Candida albicans lysate | 10 µM | reference: DMSO | log2 fold change | -0.11 |
| CC[S+]([O-])c1nc(-c2ccccc2)cc(C(F)(F)F)n1 (centres unmarked) | importin beta-1 | SREBP1 nuclear import, high content imaging | HeLa Kyoto | 0.5 µM, 3 h, together with: glucose and MG132 |  | cells with nuclear SREBP1 | 91.9% and 88.8% and 87.3% and 86.1% |
| COc1cccc(CNC(=O)C#Cc2cn(Cc3ccc(C(=O)O)cc3)c(=O)[nH]c2=O)c1 | MMP-14 | inhibitor, colorimetric |  | 20 µM |  | remaining MMP-14 activity | 109 ± 28% |

Repeated from above:
| Compound | target | assay | system | setting | how to read | quantity | result |
| --- | --- | --- | --- | --- | --- | --- | --- |
| CCOc1ccc2c(C(F)(F)F)cc(=O)oc2c1 | rabbit cytochrome P450 2B4 F297A | O-deethylation, substrate |  |  |  | kcat | 0.09 ± 0.00333 s⁻¹ |
| CC(Nc1nc(N2CCCC2)nc2ccccc12)c1ccccc1 (centres unmarked) | importin beta-1 | SREBP1 nuclear import, high content imaging | HeLa Kyoto | 0.02 µM, 3 h, together with: glucose and MG132 |  | cells with nuclear SREBP1 | 88.2% and 88.6% and 90% and 84.1% |
